Measured values gathered from unrelated publications.
Protocols differ between the studies behind these lines. ± marks the error that the study gave.

SMILES	test	system	conditions	endpoint	result
CC(C)[C@H](NC(=O)[C@H](Cc1ccc(O)cc1)NC(=O)[C@H](Cc1ccc(O)cc1)NC(=O)[C@@H]1CCCN1C(=O)[C@H](CCC(=O)O)NC(=O)[C@H](CCC(=O)O)NC(=O)[C@H](Cc1c[nH]c2ccccc12)NC(=O)[C@@H]1CCCN1C(=O)[C@@H](NC(=O)[C@H](CCC(N)=O)NC(=O)c1ccc2c(c1)C(=O)OC21c2ccc(O)cc2Oc2cc(O)ccc21)C(C)C)C(=O)N[C@H](C(=O)N[C@@H](CCCCN)C(=O)N[C@@H](CCCCN)C(=O)N[C@@H](CO)C(=O)N[C@@H](CO)C(=O)NCC(=O)NCC(N)=O)C(C)C	–	human, plasma	intravenous infusion, 200 mg, predose, day 1	plasma concentration	not detected
O=C(O)CC[C@H](NC(=O)N[C@@H](CCCCNC(=O)[C@H](Cc1ccc2ccccc2c1)NC(=O)CCCCCNC(=O)CN1CCN(CC(=O)O)CCN(CC(=O)O)CCN(CC(=O)O)CC1)C(=O)O)C(=O)O [gallium-68 labelled]	PET/CT SUVmean	mice with 22Rv1 xenograft	intravenous, 3.7 MBq, 1 h	tumour to non-tumour ratio	4.44 ± 0.34
COc1cccc2c1C(=O)c1c(O)c3c(c(O)c1C2=O)C[C@@](O)(C(=O)CO)C[C@@H]3O[C@H]1C[C@H](NC(=O)[C@@H]2CCCN2C(=O)CNC(=O)[C@@H](N)CC(C)C)[C@H](O)[C@H](C)O1	–	healthy mouse, plasma	intravenous, 23.6 mg/kg PhAc-ALGP-Dox	Cmax	0.069 ± 0.03 µM
CC(C)=NNc1ccc(C(=O)N[C@H]2CSSC[C@@H](C(=O)O)NC(=O)[C@H](Cc3c[nH]cn3)NC(=O)[C@H](CO)NC(=O)[C@H](Cc3ccccc3)NC(=O)[C@@H]3CCCN3C(=O)[C@H](CO)NC(=O)[C@@H]3CCCN3C(=O)[C@H]([C@@H](C)O)NC2=O)cn1	analytical HPLC	–	conjugate without acetone hydrazone protection	HPLC retention time	22.2 min
CC(C)C[C@H](NC(=O)C[C@H](O)[C@H](CC(C)C)NC(=O)[C@H](Cc1c[nH]cn1)NC(=O)CNC(=O)[C@@H](NC(=O)[C@H](C)NC(=O)[C@H](Cc1c[nH]c2ccccc12)NC(=O)[C@H](CCC(N)=O)NC(=O)[C@@H](Cc1ccccc1)NC(=O)COCCOCCNC(=O)CCC(C(=O)O)N1CCN(CC(=O)O)CCN(CC(=O)O)CCN(CC(=O)O)CC1)C(C)C)C(N)=O (stereo partly shown) [lutetium-177 labelled]	–	female BALB/c nu/nu mice, spleen	intravenous, 100 pmol, 4 h, together with: PA 300 µg	tissue uptake	0.09 ± 0.02 %ID/g
C[C@@H](O)[C@@H](CO)NC(=O)[C@@H](CCCNC(=N)N)NC(=O)[C@@H]1CCCN1C(=O)[C@@H]1CSSC[C@H](NC(=O)[C@H](Cc2ccccc2)NC(=O)CN2CCN(CC(=O)O)CCN(CC(=O)O)CCN(CC(=O)O)CC2)C(=O)N[C@@H](Cc2ccc(O)cc2)C(=O)N[C@@H](Cc2ccccc2)C(=O)N[C@@H](CCC(N)=O)C(=O)N[C@@H](CC(N)=O)C(=O)N1 [gallium-68 labelled]	–	PBS	1 h, 37 °C	radiochemical purity	> 99%
N=C(N)NCCC[C@@H](NC(=O)CCOCCOCCNC(=O)[C@H](CCCCNC(=O)CC[C@H](NC(=O)c1ccc(NCc2cnc3nc(N)[nH]c(=O)c3n2)cc1)C(=O)O)NC(=O)CO/N=C/[C@H](F)[C@@H](O)[C@H](O)[C@H](O)CO)C(=O)NCC(=O)N[C@H](CC(=O)O)C(N)=O [fluorine-18 labelled]	–	female nude mice, MDA-MB-231 xenograft, liver and intestine	–	hepatobiliary clearance	< 5 % ID
COc1cccc2c1C(=O)c1c(O)c3c(c(O)c1C2=O)C[C@@](O)(C(=O)CO)C[C@@H]3O[C@H]1C[C@H](NC(=O)[C@@H]2CCCN2C(=O)CN)[C@H](O)[C@H](C)O1	–	healthy mouse, plasma	intravenous, 94.4 mg/kg PhAc-ALGP-Dox	Cmax	2.83 ± 0.36 µM
COCCOCCOCCOc1ccc(C#Cc2cc(CN3CCN(Cc4cc(C#Cc5ccc(OCCOCCOCCOC)cc5)cc(C(=O)O)n4)CCN(Cc4cc(SC[C@H](N)C(=O)NC[C@H]5CC[C@H](C(=O)N[C@@H](Cc6ccc7ccccc7c6)C(=O)NCCCC[C@H](NC(=O)N[C@@H](CCC(=O)O)C(=O)O)C(=O)O)CC5)cc(C(=O)O)n4)CC3)nc(C(=O)O)c2)cc1 [yttrium-86 labelled]	–	mouse with bilateral PC-3 tumours, PSMA-positive tumour	intravenous, 6 h	tumour uptake	4.8 ± 0.01 %ID/g
CC(C)C[C@H](NC(=O)C[C@H](O)[C@H](CC(C)C)NC(=O)[C@H](Cc1c[nH]cn1)NC(=O)CNC(=O)[C@@H](NC(=O)[C@H](C)NC(=O)[C@H](Cc1c[nH]c2ccccc12)NC(=O)[C@H](CCC(N)=O)NC(=O)[C@@H](Cc1ccccc1)NC(=O)COCCOCCNC(=O)CCC(C(=O)O)N1CCN(CC(=O)O)CCN(CC(=O)O)CC1)C(C)C)C(N)=O (stereo partly shown) [lutetium-177 labelled]	–	female BALB/c nu/nu mice, tumor	intravenous, 50 pmol, 24 h	tissue uptake	4 ± 1 %ID/g
